Experimental data of several laboratories.
Numbered parts are unrelated; each lists some results of a single study.
Sequence of UniProt P07949 (whole entry, unmodified, looked up): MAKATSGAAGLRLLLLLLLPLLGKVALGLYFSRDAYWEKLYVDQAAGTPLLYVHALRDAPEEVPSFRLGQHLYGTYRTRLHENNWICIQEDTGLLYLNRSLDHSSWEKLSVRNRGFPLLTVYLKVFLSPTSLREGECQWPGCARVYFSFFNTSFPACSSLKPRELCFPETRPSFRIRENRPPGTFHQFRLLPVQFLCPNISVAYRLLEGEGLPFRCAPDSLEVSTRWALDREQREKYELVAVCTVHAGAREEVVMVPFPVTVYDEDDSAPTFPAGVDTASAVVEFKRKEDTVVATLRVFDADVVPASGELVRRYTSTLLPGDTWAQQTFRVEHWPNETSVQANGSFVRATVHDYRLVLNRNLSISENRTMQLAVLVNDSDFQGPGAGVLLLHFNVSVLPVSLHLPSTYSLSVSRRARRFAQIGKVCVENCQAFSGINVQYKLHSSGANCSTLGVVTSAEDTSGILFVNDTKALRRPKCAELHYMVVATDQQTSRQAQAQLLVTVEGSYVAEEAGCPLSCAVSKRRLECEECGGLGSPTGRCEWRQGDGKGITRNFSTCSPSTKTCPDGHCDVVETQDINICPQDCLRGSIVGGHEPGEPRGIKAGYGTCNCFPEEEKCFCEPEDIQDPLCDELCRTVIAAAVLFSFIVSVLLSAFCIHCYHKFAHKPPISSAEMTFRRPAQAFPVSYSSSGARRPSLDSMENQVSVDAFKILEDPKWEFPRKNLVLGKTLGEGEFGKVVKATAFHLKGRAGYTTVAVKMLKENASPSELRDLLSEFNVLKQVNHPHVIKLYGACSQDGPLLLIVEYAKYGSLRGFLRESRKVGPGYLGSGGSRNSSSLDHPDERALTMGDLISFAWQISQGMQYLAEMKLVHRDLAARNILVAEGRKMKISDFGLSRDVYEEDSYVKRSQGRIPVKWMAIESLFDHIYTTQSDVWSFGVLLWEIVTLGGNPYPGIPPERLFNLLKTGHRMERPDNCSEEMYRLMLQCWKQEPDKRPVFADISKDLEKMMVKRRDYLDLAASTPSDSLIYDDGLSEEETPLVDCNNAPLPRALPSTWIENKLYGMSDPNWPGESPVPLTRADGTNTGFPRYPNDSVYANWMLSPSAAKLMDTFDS
Sequence of UniProt Q96Q40 (whole entry, looked up): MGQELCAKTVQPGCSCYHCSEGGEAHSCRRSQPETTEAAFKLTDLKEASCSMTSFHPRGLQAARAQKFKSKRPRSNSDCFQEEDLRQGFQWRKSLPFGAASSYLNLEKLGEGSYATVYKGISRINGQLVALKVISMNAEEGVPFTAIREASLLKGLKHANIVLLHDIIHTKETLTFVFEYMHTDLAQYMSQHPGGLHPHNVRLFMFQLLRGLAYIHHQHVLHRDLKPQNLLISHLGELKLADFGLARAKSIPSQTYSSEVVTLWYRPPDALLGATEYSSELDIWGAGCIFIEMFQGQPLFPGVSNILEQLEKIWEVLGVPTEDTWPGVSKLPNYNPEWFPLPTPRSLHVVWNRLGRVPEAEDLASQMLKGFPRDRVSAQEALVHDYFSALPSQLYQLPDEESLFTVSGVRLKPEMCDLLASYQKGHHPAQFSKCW
Sequence of UniProt P07948 (whole entry, looked up): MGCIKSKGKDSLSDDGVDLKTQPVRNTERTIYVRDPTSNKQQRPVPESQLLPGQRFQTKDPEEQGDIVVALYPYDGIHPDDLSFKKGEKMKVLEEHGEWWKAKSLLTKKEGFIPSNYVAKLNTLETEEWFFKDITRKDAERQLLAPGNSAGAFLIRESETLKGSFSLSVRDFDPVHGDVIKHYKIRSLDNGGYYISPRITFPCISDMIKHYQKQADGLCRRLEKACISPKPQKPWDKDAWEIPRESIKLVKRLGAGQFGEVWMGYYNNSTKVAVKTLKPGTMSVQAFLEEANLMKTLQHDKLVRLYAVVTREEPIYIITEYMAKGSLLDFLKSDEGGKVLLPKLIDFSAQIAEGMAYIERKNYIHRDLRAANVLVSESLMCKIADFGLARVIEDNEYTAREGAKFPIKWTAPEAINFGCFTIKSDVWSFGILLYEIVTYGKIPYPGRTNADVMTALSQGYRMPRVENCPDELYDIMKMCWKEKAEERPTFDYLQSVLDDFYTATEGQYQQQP
Sequence of UniProt Q15303 (whole entry, looked up): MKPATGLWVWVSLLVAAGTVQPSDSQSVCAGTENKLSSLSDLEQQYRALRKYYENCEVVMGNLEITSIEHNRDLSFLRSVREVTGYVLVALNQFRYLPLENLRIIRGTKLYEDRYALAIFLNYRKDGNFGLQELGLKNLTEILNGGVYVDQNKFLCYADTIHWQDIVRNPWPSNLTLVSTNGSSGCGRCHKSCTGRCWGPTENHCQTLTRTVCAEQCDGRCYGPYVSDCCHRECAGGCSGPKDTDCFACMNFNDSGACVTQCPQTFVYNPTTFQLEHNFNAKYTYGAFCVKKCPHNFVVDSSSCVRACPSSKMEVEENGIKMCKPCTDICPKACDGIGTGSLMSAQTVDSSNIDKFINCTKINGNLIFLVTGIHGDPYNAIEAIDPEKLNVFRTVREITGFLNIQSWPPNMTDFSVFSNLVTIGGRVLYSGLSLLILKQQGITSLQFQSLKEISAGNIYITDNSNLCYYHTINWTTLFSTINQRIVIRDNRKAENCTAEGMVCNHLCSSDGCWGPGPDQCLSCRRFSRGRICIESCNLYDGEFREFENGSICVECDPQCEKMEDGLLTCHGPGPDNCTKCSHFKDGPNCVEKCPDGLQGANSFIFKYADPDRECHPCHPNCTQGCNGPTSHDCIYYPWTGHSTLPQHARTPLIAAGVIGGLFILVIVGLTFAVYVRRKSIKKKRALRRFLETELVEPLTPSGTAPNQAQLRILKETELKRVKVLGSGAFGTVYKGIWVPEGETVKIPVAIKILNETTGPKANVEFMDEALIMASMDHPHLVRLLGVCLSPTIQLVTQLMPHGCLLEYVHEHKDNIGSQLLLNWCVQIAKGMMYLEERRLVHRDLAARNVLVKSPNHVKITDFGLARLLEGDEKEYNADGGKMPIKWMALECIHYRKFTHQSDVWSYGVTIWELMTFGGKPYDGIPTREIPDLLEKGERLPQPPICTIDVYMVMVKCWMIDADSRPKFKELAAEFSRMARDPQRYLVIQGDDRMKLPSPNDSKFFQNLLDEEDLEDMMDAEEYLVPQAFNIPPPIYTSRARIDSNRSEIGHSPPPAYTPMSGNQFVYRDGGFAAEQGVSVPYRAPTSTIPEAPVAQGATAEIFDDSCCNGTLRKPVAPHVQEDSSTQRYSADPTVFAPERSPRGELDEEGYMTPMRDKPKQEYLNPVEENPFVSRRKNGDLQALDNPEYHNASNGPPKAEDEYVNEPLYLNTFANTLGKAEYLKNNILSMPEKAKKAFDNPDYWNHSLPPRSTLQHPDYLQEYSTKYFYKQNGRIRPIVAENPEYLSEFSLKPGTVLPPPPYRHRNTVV
Sequence of UniProt P21709 (whole entry, looked up): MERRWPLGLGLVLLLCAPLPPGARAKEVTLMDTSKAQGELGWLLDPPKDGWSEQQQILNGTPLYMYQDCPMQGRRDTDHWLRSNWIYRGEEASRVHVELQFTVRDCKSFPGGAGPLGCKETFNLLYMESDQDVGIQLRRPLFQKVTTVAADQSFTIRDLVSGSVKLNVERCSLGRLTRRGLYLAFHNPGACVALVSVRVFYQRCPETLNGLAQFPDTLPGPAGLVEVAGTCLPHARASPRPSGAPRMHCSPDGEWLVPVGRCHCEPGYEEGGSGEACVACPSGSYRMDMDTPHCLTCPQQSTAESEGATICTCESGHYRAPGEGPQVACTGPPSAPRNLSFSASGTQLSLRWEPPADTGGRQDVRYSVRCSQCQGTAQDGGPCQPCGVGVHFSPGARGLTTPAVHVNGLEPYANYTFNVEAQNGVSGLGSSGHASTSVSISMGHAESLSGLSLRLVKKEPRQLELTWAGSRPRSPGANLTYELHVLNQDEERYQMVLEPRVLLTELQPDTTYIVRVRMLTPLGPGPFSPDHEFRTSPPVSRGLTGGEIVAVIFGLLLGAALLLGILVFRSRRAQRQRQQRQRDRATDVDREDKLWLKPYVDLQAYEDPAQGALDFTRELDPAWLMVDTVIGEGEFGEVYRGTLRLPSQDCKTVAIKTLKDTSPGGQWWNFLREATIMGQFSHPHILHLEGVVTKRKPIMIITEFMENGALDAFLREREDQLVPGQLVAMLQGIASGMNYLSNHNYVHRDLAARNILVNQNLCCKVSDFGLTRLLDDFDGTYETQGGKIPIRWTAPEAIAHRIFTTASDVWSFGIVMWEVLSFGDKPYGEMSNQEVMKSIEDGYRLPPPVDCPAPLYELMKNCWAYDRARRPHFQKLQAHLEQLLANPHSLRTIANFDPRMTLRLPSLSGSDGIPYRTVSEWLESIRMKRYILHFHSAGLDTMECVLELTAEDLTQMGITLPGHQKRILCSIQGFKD
Sequence of UniProt P49137 (whole entry, looked up): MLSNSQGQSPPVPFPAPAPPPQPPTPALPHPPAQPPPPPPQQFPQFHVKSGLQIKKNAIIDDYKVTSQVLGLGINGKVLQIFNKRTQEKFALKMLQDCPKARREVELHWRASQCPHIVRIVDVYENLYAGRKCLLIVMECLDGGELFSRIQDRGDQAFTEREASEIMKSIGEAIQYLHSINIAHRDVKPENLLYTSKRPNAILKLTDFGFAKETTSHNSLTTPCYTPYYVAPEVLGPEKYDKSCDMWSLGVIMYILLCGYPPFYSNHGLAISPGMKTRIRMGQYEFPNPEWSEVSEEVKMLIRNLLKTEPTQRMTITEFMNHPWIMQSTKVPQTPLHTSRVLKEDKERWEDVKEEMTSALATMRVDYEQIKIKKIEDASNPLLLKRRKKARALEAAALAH

Sample 1
SMILES: CO[C@H]1CC[C@H](CNc2ccc(S(=O)(=O)NC(=O)c3ccc(N4CCN(CC5=C(c6ccc(Cl)cc6)CC(C)(C)CC5)CC4)cc3Oc3cnc4[nH]ccc4c3)cc2[N+](=O)[O-])CC1
Effect on: cell-free assay
Method: competition with immobilised ligand
Concentration: 1 µM
target	remaining binding [%]
CDK15 (Homo sapiens, UniProt Q96Q40)	100
MAPKAPK2 (Homo sapiens, UniProt P49137)	93
EPHA1 (Homo sapiens, UniProt P21709)	100
ERBB4 (Homo sapiens, UniProt Q15303)	80
LYN (Homo sapiens, UniProt P07948)	74
Tyrosine-protein kinase ABL1, phosphorylated (ABL1, Homo sapiens, UniProt P00519, Y253F)	100
RET (Homo sapiens, UniProt P07949, M918T)	85
MKNK1 (Homo sapiens, UniProt Q9BUB5)	90

Sample 2
Organism: Plasmodium berghei
Action: inhibitor
Cell line: Huh-7
Strain: GFP-expressing, liver stage
Concentration: 10 µM
Time: 24 h
Reference: untreated control
Structure (SMILES)	infection rate
CC(CN(C)C)CN1c2ccccc2Sc2ccccc21 (stereo not shown)	73.1%
CCC1(C)OC(=O)N(C)C1=O (stereo not shown)	96.2%
Nc1ccc(S(=O)(=O)Nc2ccccn2)cc1	108%
Cc1ccc(N(CC2=NCCN2)c2cccc(O)c2)cc1	84.2%
COc1cc2nc(N3CCN(C(=O)c4ccco4)CC3)nc(N)c2cc1OC	74.5%
CC(CN1c2ccccc2Sc2ccccc21)N(C)C (stereo not shown)	69.9%
Cc1nc2ccccn2c(=O)c1CCN1CCC(C(=O)c2ccc(F)cc2)CC1	85.1%
CCC[C@H](N[C@@H](C)C(=O)N1[C@H](C(=O)O)C[C@@H]2CCCC[C@@H]21)C(=O)OCC	111%

Sample 3
SMILES: COc1cc(C(=O)N2CCC(N3CCN(C)CC3)CC2)ccc1Nc1ncc2c(n1)N(C)c1ccccc1C(=O)N2C
tested on	test	test system	setting	inhibition
human PBMC	probe labeling, inhibitor, KiNativ profiling	cell lysate	concentration not given, domain 1, LYS1 site, with: ATP acyl-phosphate probe 1 µM	-4%
human PBMC	probe labeling, inhibitor, KiNativ profiling, measured: DIkSQNIFLTK	cell lysate	concentration not given, LYS2 site, with: ATP acyl-phosphate probe	-1.1%
DCLK1	KiNativ ADP probe	mouse brain lysate	0.1 µM, LYS1 site	13.1%
PCTAIRE1 (mouse)	probe labelling, KiNativ ATP probe	mouse brain lysate	1 µM, LYS1 labelled site	17.7%
human PBMC	probe labeling, inhibitor, KiNativ profiling, measured: YVAVkIHQLNK	cell lysate	concentration not given, LYS1 site, with: ATP acyl-phosphate probe 1 µM	-1.3%
CaMKK1 (mouse)	probe labelling, KiNativ, measured: Lys1 site peptide	brain tissue lysate (mouse)	1 µM, with: ATP acyl-phosphate probe	1%

Sample 4
Target: Bromodomain-containing protein 4, BD1 (BRD4, Homo sapiens, UniProt O60885)
Effect on: acetyl-histone H4 peptide binding
Method: AlphaScreen displacement
Concentration: 50 µM
Structure (SMILES)	inhibition [%]
O=C(NC1CCCC1)c1n[nH]c2ccccc12	9.38
COc1ccc(-c2nnc3ccc(SCC(=O)N4CCOCC4)nn23)cc1OC	8.7
COc1ccc(-c2[nH]c3ncccc3c2CN2CCN(C)CC2)cc1	27.2
CCOC(=O)CNC(=O)CSc1ccc2nnc(-c3cccc(F)c3)n2n1	12.4
CCN(CC)CCNc1nc(-c2cccc(OC)c2O)nc2ccccc12	51.6
O=C(NCc1ccco1)c1n[nH]c2ccccc12	10.8
